Assay results pooled from the literature.
Every numbered part comes from another study and shows a few of its results, in no order.

Series 1
Target: Interferon regulatory factor 5, full length, phosphomimetic (IRF5, Homo sapiens, UniProt Q13568-2, residues 1-514, K96S/S451D/S453D/S456D/S462D)
Technique: protein-binding microarray
Molecule type: double-stranded DNA, one strand shown
Matrix: in vitro
Concentration: 250 nM
Notes: 60-bp whole probe
Together with: salmon DNA 0.4 mg/ml
Relative to: random background probes
Direction: higher = stronger binding
Constant ends, left off below: GCCTAGCAC … GTCTTGATTCGCTTGACGCTGCTG
| Sequence | log fluorescence [z-score] |
| --- | --- |
| TAAGAAAAGCCACCAGGACCGTGCTAG | -0.391 |
| AGTGTTTCCCCTATTTAAGAGTGCTAG | 1.04 |
| TCTCTTCTGCTTCCTCAGGACGTGCTA | 0.116 |
| TTAGGTTCTCTTTTCCTTTAGTGCTAG | 0.624 |
| GACGGTATCAGTCTCGGGACGTGCTAG | 1.06 |
| TTGGGTATCGACTATCGGTTAGTGCTA | 7.87 |
| TTAGAACTGGGGTATCGATGAGTGCTA | 1.15 |
| TCTCTTTTGGCTTTCCTTTAGTGCTAG | 2.14 |
| TTAGGTTTCCTTATCCTATAGTGCTAG | 0.955 |
| TTAGGTATCGGTATCCGTTAGTGCTAG | 7.18 |
| TTAGATATCAGACTGCATTAGTGCTAG | 0.176 |
| TTAGATTTTAGACTGGATTAGTGCTAG | 0.113 |
| TTAGGTTTCGGTATCGGCTAGTGCTAG | 10.8 |
| GACGGTTTCGGGACTGAGGACGTGCTA | 4.95 |
| TTGGATCTCAGTATCGATTAGTGCTAG | 5.92 |
| TTAGATTTCAGTTTCGTTTAGTGCTAG | 9.16 |
| GTCGGTATCGGTCTCGGGACGTGCTAG | 6.71 |
| TCACATTTCCCTTGCCGACTGTGCTAG | 0.718 |

Series 2
Target: Centromere-binding protein 1, full length, His-tagged (CBF1, Saccharomyces cerevisiae, UniProt P17106, residues 1-351)
Sequence of UniProt P17106 (whole entry, looked up): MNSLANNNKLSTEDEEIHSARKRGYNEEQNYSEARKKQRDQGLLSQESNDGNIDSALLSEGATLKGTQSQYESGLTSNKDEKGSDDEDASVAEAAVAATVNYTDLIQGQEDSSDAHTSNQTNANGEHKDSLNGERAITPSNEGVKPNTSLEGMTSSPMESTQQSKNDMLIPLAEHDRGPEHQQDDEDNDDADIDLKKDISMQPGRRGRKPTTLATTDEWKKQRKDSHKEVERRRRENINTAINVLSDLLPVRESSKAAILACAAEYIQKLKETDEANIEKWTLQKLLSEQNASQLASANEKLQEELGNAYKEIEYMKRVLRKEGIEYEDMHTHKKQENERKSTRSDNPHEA
Technique: competition protein-binding microarray
Molecule type: double-stranded DNA, one strand shown
Matrix: in vitro
Concentration: 2 µM
Notes: whole 60-bp probe, lowest competitor level
Together with: Pho4 competitor, 0.05 µM
Direction: higher = stronger binding
| Sequence | fluorescence intensity [a.u.] |
| --- | --- |
| TTTTTCTCTTGCCGTCACATGATCGCAAAATGGCAAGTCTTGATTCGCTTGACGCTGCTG | 4870 |
| CTTCTGTAAATTTGATATGTGGGTGGACGCGCCCCGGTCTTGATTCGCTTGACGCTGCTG | 86.1 |
| CATACCCAACCTTGTGCAGTGGGTGAAGATATTTGTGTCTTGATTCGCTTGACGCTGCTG | 73.2 |
| TACAAGACTCCGAGTCACATGAAACCACACCTTCGGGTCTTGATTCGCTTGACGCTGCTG | 394 |
| AATGTGTCGTTCGAACTCGTGGTTACGTCGCCTGGAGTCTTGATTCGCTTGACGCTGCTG | 87.8 |
| AAATTACTAAGTTTTCACGTGAGGTACCCCGTATGAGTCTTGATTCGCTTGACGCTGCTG | 940 |
| TTATCAGTGCTAAAGCACGATCCAAGTGGTGGCACAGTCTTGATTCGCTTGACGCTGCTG | 69.1 |
| GGACACTTTTCCCGTCACGTGGAACCGGCTTACAAGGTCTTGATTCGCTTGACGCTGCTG | 3580 |
| GAGCAATCATACCGTCACGTTCCATCTCACCGAATCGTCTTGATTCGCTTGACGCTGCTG | 288 |
| TTCTGGAACAATTATCATGTTTCTCATCTGGGTTCTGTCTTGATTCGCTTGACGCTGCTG | 124 |
| GATATTGTACGTATTCACGTGTGAATTGCTAAAGAGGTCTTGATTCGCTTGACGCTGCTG | 884 |
| CATACGCGTTCGCTTCACGTGATGGTCCTTTTCCATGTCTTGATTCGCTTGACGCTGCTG | 2690 |
| GTCTTGTCTCATTGGGTTGTGGGTGTCCCCACTTCAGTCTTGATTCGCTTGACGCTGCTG | 76.8 |
| CATACCCAACCTTGCTTCGTGGGTGAAGATATTTGTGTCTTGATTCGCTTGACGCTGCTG | 76 |
| CTTTCCCGATCTTGTCACGCAACTTTAGCACATTTGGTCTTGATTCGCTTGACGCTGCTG | 120 |
| CGTCCTAGTGATTGGAAAGTGGGTGCCATGAGGAAGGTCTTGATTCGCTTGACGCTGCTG | 76.2 |
| GTATTTTAACCACTGCTCGTGAAGACCACTCCAGTGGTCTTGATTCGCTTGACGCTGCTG | 103 |
| GTACTTGTTTCCGTTTCCGTGCCAGGCTAGATCCATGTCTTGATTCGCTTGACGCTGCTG | 62.9 |
| CGCTTATTTGTAGAGTTTGTAGTTTTTAAGCGTTCTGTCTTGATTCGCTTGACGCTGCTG | 87.6 |
| ATCCAAAAGTTGAACGACATGACAAGGTAGTTCCGAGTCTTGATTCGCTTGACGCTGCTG | 67.4 |
| GTCTTGTCTCATTGATTTGTGGGTGTCCCCACTTCAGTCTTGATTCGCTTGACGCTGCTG | 82.4 |
| CTTCTGTAAATTTGGGATGTGGGTGGACGCGCCCCGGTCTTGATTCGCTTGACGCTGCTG | 80.6 |
| CGGGGTTAAGTTTACCACGTGTTTTGCTTGCAGCAGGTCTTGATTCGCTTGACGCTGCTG | 1260 |
| TGCGCAACAACTTGTGTTGTGGGTGTATGTCTAGAAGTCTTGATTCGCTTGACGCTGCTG | 65.9 |
| GTATGGCGCGGAAGAAACCGAGAGAGCTGCAAAATTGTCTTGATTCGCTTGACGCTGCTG | 56.9 |

Series 3
Target: Histone acetyltransferase KAT6A, winged helix 1, GST fusion (KAT6A, Homo sapiens, UniProt Q92794, residues 1-85)
Technique: protein binding microarray
Molecule type: double-stranded DNA, one strand shown
Matrix: in vitro
Concentration: not given
Notes: 8-mer, flanks averaged, mean of 2 arrays, mostly near background
Relative to: not given
Direction: higher = stronger binding
Construct (chain): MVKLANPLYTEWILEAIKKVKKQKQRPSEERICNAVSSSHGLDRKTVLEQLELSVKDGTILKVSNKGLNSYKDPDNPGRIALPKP
| Sequence | E-score |
| --- | --- |
| ACATTTGA | -0.0631 |
| CCTAAGTA | -0.0692 |
| AGCAAACT | -0.186 |
| ACAAGTAG | -0.219 |
| GCGGTTAC | 0.364 |
| ACTTGGAC | 0.0268 |
| GCAGTCGA | 0.0358 |
| TCTGTACA | -0.0321 |
| ACGAATAA | -0.204 |
| AGTCTTCA | -0.154 |
| CCGAGATC | 0.0242 |
| AATGGACA | -0.203 |
| CATCATGA | -0.223 |
| AAGATTAG | -0.0481 |
| ATAGAAGC | -0.23 |
| AGATGACT | -0.124 |
| CCTCGACG | 0.0905 |
| CTTTGCGC | 0.204 |
| GGTCTAAA | -0.184 |
| GAAACGCC | 0.204 |
| GGAATACA | -0.124 |
| CCGCTGCG | 0.362 |
| GCAATGTA | -0.0812 |
| GAGTCTGA | -0.226 |
| CCTTTGCG | 0.155 |

Series 4
Target: RNA binding protein fox-1 homolog 2, RRM domain, GST-SBP tag (RBFOX2, Homo sapiens, UniProt O43251-10, residues 100-194)
Technique: RNA Bind-n-Seq
Molecule type: RNA
Matrix: in vitro
Concentration: 365 nM
Notes: natural RNA segment, single round, ends assumed
Relative to: no-protein control
Direction: higher = stronger binding
Construct (chain): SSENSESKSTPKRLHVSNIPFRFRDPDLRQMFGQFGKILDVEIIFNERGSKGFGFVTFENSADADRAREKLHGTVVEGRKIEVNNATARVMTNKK
| Sequence | RBNS enrichment (R) |
| --- | --- |
| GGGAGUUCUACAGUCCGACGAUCUCCAUGAAUUAAAUCUGUUUCCUGUGUUAGUCAGUAUUCUUAAAUAAAAUUUAUAAUUGAAACAUGAGUGAAUGUGGACUUUUUUGGUGGAAAUGGUCUUGUUAAAUAAUUGGAAUUCUCGGGUGCCAA | 0.828 |
| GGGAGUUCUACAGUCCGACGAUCCAGGACUGGGGCUUUCUCCCCAGAGGUGAGCCUCUGUGAGCAUCGAGAGGAUUUGCACAUGCCAAGCAGAGGGUGGCUCUCUUGGCAGUGAGAUUUGGGGGAAACAGACAUGGAAUUCUCGGGUGCCAA | 0.766 |
| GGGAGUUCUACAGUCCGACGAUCUUUAUUUUAAAAACCAGUGGGAAAGAGUGGGGGGUUUCUUUUUAUGUCUGGGUCAUUCAGGCAGUACAUCUGAAUUAAGCUGAAUGUAGACAAAUAAAGAAAAACAAAACUGGAAUUCUCGGGUGCCAA | 0.577 |
| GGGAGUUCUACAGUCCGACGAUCGAAAUAAGUACCUGUGGUGAACAAGUUUCUACUGUAGUUGGAGAUCAUUAGAAUUGAAUUCAGUUUCUCUUAGAAUAUAAUCAGGUAUAAACCUAAGUUAAACUUUUUCCUGGAAUUCUCGGGUGCCAA | 0.39 |
| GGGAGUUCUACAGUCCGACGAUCUAUACUUUAUUUACCCAUGUGUAUAUUUUAUGAUCAUGAUCUAAGCUGUUAAUUCUUUCAUUCAUGUCCCUGCUGAGACACUGAUAUUAGCAACUUAGAGUUGGUGAGUUUGGAAUUCUCGGGUGCCAA | 0.297 |
| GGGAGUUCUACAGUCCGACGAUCCCAUCAAGUUCCCAGCUUUUCAGGAAUGAAAGAAGUUCAGCAGUCAGAUAAUCCUUGUGUCUUGGGUCAGUUUGGCCCUGGCCCUAGAGUGAGGCAAGCCCUUCCUAUGAUGGAAUUCUCGGGUGCCAA | 0.384 |
| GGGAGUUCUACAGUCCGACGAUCGUAGUCUUUAUGGUGUGUCUUUAUGACGUAAUAAGGUUCUCACGGGUUCGAUUCCUUUGUGUUUAGAGAGACCAGGUUCAGACAAUGGUAUAUAUUUUUGUUAUCAGGUGUGGAAUUCUCGGGUGCCAA | 0.423 |
| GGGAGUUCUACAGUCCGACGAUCACAGUCCCAGGAGAGAAGUCAUUAAGGGGGAACAUUGCAAGCUAUCUUUUCGUGUUCUCAGUGUAUUAUGUACGUGUGUGCUGUUGCCGCUAUGAGGGCUCGGGGCUUGCUGGAAUUCUCGGGUGCCAA | 0.766 |
| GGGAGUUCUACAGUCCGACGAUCUUUUUAAUUCAAUCUGGAAUCAGAAAGCGGUGGAUUCUGGCAAAUGGUCCUUGUGCCCUCCCCACUCAUCCCUGGUCUGGUCCCCUGUUGCCUAUAGCCCUUUACCCUGAUGGAAUUCUCGGGUGCCAA | 0.413 |
| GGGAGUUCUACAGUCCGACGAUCUACAGAACCAGCACUCCCAGGGCCCGAGCGCGUGCCUUCCCCGUGCGGCCCGUGCGCAGCCGCGCUCUGCCCCUCCGUCCCCAGGGUGCAGGCGCGCACCGCCCAACCCCUGGAAUUCUCGGGUGCCAA | 0.312 |
| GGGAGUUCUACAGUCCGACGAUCCCACCCCUGGCCCCCUACCCUUAGAUUCUCUGUGUUCCACAAGGAGACAUCAUGAGAUGUCUUCCUUAAGCUGCACCAAGCCAUUGUCCUCCGUUGUUCCCAGGACUCAAUGGAAUUCUCGGGUGCCAA | 0.584 |
| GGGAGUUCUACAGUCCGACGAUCGCCUUGUUAUUACUAGGUUUUUUGAGAUUAAAAAAAAAAAAUCCCUGGUUUAAAACCAACAAUGAUGCCUAGUGAGUAUGUGUCCACAGGCCAUAACAGGGUAGAAGAGAUGGAAUUCUCGGGUGCCAA | 0.691 |

For quick reference, copied from above (series 3):
| Sequence | E-score |
| --- | --- |
| GGTCTAAA | -0.184 |
| GAAACGCC | 0.204 |
| GGAATACA | -0.124 |
| CCGCTGCG | 0.362 |
| GCAATGTA | -0.0812 |
| GAGTCTGA | -0.226 |
